# Experimental data of several laboratories.
# Every numbered part comes from another study and shows a few of its results, in no order. Substitutions count along the parent as printed.
# Sequence of UniProt P41143 (whole entry, looked up): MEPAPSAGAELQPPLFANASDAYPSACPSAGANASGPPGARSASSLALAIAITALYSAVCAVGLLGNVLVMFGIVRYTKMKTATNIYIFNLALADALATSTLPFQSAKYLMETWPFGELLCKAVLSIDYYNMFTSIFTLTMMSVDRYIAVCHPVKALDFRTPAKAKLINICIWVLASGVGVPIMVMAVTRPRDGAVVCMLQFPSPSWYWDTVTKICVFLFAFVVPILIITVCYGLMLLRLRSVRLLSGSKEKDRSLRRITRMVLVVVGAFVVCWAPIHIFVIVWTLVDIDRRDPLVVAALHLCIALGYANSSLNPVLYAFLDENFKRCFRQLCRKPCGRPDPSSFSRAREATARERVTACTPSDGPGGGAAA

# Study 1 — target: CCNE1, cyclin fold, Cln2 fusion (human); method: yeast growth competition, sequencing; sample: yeast; setting: strong parent motif; relative to: not given; direction: higher = stronger binding; starting sequence: viral docking peptide; YKVKRRLVFGADD
Substitution,normalised enrichment score
YKIKRRLVFGADD [V3I],2.39
YKVKRFLVFGADD [R6F],1.8
YKVKNRLVFGADD [R5N],0.0268
YKVKMRLVFGADD [R5M],0.316
YKVKRRLVGGADD [F9G],0.215
YKVKRRLVKGADD [F9K],0.14
YKVKRRLVFGVDD [A11V],5.95
YKVKRRLVVGADD [F9V],0.445

# Study 2 — effect on: peptide-MHC binding; molecule type: peptide; concentration: concentration not given
# Target: HLA class I histocompatibility antigen, A alpha chain, allele A*25:01 (Homo sapiens, UniProt P04439)
Sequence,binding
EVRKAIEFV,inactive
NTIEELSGY,active
KLWASFFQG,inactive
VHYGQGWLY,inactive
YQAENSTAE,inactive
LVAPHMAMM,inactive
AKATGRYNL,inactive
KPPRGVLLY,inactive

# Study 3 — target: UBE2D3 UBC core domain (UniProt P61077); method: yeast two-hybrid; sample: yeast; setting: mostly zero background; relative to: not given; direction: higher = stronger interaction
# B1: HLTF RING domain (UniProt Q14527); chain LILSSGSDEECAICLDSLTVPVITHCAHVFCKPCICQVIQNEQPHAKCPLCRNDIHEDNLLE
# B2: RNF6 RING domain (UniProt Q9Y252); chain NSIDSELGKICSVCISDYVTGNKLRQLPCMHEFHIHCIDRWLSENCTCPICRQPVLGSNIAN
# B3: NFX1 RING domain (UniProt Q12986); chain IEQLTTEKYECMVCCELVRVTAPVWSCQSCYHVFHLNCIKKWARSPASQADGQSGWRCPACQNVSAHVPNTY
# B4: ZMYND11 RING domain (UniProt Q15326); chain DEIDWETENHDWYCFECHLPGEVLICDLCFRVYHSKCLSDEFRLRDSSSPWQCPVCRSIKKKNTNKQEM
# B5: TRIM11 RING domain (UniProt Q96F44); chain LSTNLQEEATCAICLDYFTDPVMTDCGHNFCRECIRRCWGQPEGPYACPECRELSPQRNLRP
# B6: MARCHF1 RING domain (UniProt Q8TCQ1); chain TAPRSQSRLSVCPSTQDICRICHCEGDEESPLITPCRCTGTLRFVHQSCLHQWIKSSDTRCCELCKYDFIMETKLKPLRKWE
# Construct (chain): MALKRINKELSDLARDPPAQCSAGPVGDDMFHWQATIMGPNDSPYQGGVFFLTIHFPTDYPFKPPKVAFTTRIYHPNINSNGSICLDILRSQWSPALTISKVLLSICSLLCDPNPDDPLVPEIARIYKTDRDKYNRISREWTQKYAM
Sequence,lacZ reporter activity
B1 (HLTF RING domain),0
B2 (RNF6 RING domain),0
B3 (NFX1 RING domain),0
B4 (ZMYND11 RING domain),0
B5 (TRIM11 RING domain),0
B6 (MARCHF1 RING domain),0
ASPKIFQKTKCSICNSALELPSVHFLCGHSFHQHCFESYSESDADCPTCLPENRKVMDMI (VPS11 RING domain (UniProt Q9H270)),0
ASEEEFQFLRCQQCQAEAKCPKLLPCLHTLCSGCLEASGMQCPICQAPWPLGADTP (PML RING domain (UniProt P29590)),0

# Further values, each from its own experiment
Compound,target,effect on,method,concentration,quantity,value
O=C(Nc1ccc(-n2nc(-c3cccnc3)cc2C(F)(F)F)cn1)c1ccc(-c2ccccc2)c(F)c1,"Delta-type opioid receptor (OPRD1, Homo sapiens, UniProt P41143)",binding,radioligand binding,10 µM,inhibition,3.77%
